# Assay results collected from several papers.
# Protocols differ between the studies behind these lines. Numbers after ± are the reported error.
# HLA class I histocompatibility antigen, A alpha chain allele A*02:01: HLA class I histocompatibility antigen, A alpha chain, allele A*02:01 (Homo sapiens, UniProt P04439)
# UniProt P29320, sequence (whole entry, looked up): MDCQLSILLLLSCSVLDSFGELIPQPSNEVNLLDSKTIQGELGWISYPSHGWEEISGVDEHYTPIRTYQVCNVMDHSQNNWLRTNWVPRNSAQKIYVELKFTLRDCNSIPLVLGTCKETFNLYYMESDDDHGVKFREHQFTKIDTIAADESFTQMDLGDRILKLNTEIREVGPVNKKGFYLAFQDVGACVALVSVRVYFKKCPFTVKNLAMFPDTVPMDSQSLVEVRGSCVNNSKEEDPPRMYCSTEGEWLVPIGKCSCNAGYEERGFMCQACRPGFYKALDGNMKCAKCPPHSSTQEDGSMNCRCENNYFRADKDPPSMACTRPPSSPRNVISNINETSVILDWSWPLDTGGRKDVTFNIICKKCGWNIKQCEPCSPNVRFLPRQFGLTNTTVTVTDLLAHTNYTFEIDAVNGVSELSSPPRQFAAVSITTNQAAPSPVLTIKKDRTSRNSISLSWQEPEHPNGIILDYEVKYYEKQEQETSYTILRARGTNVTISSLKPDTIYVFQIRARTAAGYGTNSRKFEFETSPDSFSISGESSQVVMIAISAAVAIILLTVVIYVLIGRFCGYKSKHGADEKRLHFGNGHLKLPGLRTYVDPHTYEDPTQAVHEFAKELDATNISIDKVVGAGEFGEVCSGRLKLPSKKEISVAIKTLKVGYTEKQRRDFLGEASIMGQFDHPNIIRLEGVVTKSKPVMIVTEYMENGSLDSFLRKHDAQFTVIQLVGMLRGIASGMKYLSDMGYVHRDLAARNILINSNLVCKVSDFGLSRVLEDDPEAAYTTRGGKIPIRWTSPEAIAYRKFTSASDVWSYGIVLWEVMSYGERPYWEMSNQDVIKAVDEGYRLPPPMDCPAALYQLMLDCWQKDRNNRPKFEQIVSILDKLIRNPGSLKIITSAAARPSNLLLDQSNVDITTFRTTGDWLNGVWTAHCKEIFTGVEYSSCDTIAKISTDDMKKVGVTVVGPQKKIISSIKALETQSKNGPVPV
SMILES,tested on,test,system,conditions,scale,measurement,result
CSCC[C@H](NC(=O)[C@@H](N)Cc1c[nH]cn1)C(=O)N[C@@H](Cc1ccc(O)cc1)C(=O)N1CCC[C@H]1C(=O)N[C@@H](CC(N)=O)C(=O)N[C@@H](Cc1ccccc1)C(=O)N[C@H](C(=O)N[C@@H](CCC(N)=O)C(=O)N[C@@H](Cc1ccccc1)C(=O)O)C(C)C,"HLA class I histocompatibility antigen, A alpha chain allele A*02:01",binding,,,,IC50,13.7 µM
O=C(Nc1ccccc1)C1CCN(C(=O)Oc2cccnc2)CC1,,Bond-Lader VAS,healthy women,"oral, 20 mg","reference: pre-dose baseline, direction not given",change in contentment score,8.1
CC(C)C[C@H](NC(=O)[C@H](CCCCN)NC(=O)OCC1c2ccccc2-c2ccccc21)C(=O)N[C@H](C(=O)N[C@@H](Cc1ccccc1)C(=O)N[C@@H](Cc1ccccc1)C(=O)N[C@@H](CCCCN)C(=O)NCC(=O)N[C@@H](Cc1ccccc1)C(=O)N[C@@H](C)C(=O)N[C@@H](Cc1c[nH]c2ccccc12)C(=O)N[C@@H](CC(N)=O)C(=O)N[C@H](C(=O)N[C@H]1CSSC[C@@H](C(=O)N[C@@H](Cc2c[nH]cn2)C(=O)N[C@@H](CCCNC(=N)N)C(=O)N[C@@H](CCCNC(=N)N)C(=O)N[C@@H](C)C(=O)N[C@@H](CC(N)=O)C(N)=O)NC(=O)[C@H](C(C)C)NC(=O)[C@H](CCCNC(=N)N)NC(=O)[C@H](C(C)C)NC(=O)CNC(=O)[C@H](CC(N)=O)NC(=O)[C@H](CCCNC(=N)N)NC(=O)[C@H](Cc2ccc(O)cc2)NC(=O)[C@H](C(C)C)NC1=O)C(C)C)C(C)C,,,"ICR mice, serum","intraductal mammary, 5 mg/kg, day 5",,total protein,52.1 ± 1.01 g/L
CCN1[C@@H](C(=O)NC23CCC(C(=O)O)(CC2)CC3)[C@H](c2cccc(Cl)c2F)[C@]2(C(=O)Nc3cc(Cl)ccc32)C12CCCCC2,,,patients with advanced solid tumours,"oral, dose not given, all doses",,grade ≥3 Leukopenia incidence,23.8%
C[C@@H]1OC(=O)NN=C1c1ccc(-c2ccc(F)cc2)c(C(F)(F)F)c1,,"phase I trial, item: Cough worst grade 1",human patients,20 mg loading then 1 mg daily,,patients with adverse event,50%
O=C(O)C[C@H](NC(=O)[C@H](CC(=O)O)NC(=O)[C@H](CC(=O)O)NC(=O)[C@H](CC(=O)O)NC(=O)[C@H](CC(=O)O)NC(=O)[C@H](CC(=O)O)NC(=O)[C@H](CC(=O)O)NC(=O)[C@H](CC(=O)O)NC(=O)[C@H](CC(=O)O)NC(=O)[C@H](CC(=O)O)NC(=O)[C@H](CC(=O)O)NC(=O)[C@H](CCCCNC(=O)c1ccc(C(=O)NCCOCCOB2BBBBBB3BBBB3B2)cc1)NC(=O)CN1CCN(CC(=O)O)CCN(CC(=O)O)CCN(CC(=O)O)CC1)C(=O)O [gallium-67 labelled],,,"ddY male mice, kidney","intravenous, 37 kBq, 1 h",,tissue uptake,6.83 %ID/g
C[C@@H](O)[C@H](NC(=O)[C@@H]1CSSC[C@H](NC(=O)[C@@H](Cc2ccccc2)NC(=O)CN2CCN(CC(=O)[O-])CCN(CC(=O)[O-])CCN(CC(=O)[O-])CC2)C(=O)N[C@@H](Cc2ccc(O)cc2)C(=O)N[C@H](Cc2c[nH]c3ccccc23)C(=O)N[C@@H](CCCCN)C(=O)N[C@@H]([C@@H](C)O)C(=O)N1)C(=O)O.[177Lu+3],MEC1 treated with 200 µM zebularine,gamma counter,,15 min efflux after 2 h loading,,retention,39.5%
CO[C@H]1C[C@@H]2CC[C@@H](C)[C@@](O)(O2)C(=O)C(=O)N2CCCC[C@H]2C(=O)O[C@H]([C@H](C)C[C@@H]2CC[C@@H](OC(=O)NCCOCCOCCOCCOCCOCCOCCOCCOCCC(=O)N3CCc4cc(Cn5nc(-c6ccc7oc(N)nc7c6)c6c(N)ncnc65)ccc4C3)[C@H](OC)C2)C[C@@H](O)[C@H](C)/C=C(\C)[C@@H](O)[C@@H](OC)C(=O)[C@H](C)C[C@H](C)/C=C/C=C/C=C/1C,,,patients with advanced solid tumours,"intravenous, 8 mg weekly, grade 3 or higher",,AE leading to dose interruption,31.3%
C[C@H]1CN(c2n[nH]c3nc(N[C@H]4CC[C@H](NS(=O)(=O)CCC(F)(F)F)CC4)ncc23)CCO1,"Ephrin type-A receptor 3 (EPHA3, Homo sapiens, UniProt P29320)","inhibitor, Kinobeads competition profiling",,0.032 µM,reference: vehicle,relative abundance,0.99
CC(C)[C@H](NC(=O)[C@@H](N)Cc1ccc(O)cc1)C(=O)N[C@@H](Cc1ccc(O)cc1)C(=O)N[C@@H](CCC(N)=O)C(=O)N[C@@H](Cc1c[nH]cn1)C(=O)N1CCC[C@H]1C(=O)N[C@@H](Cc1c[nH]cn1)C(=O)N[C@H](C(=O)N[C@@H](Cc1ccc(O)cc1)C(=O)O)[C@@H](C)O,"HLA class I histocompatibility antigen, A alpha chain allele A*02:01",binding,,,,IC50,48.4 µM
CN1CC[C@@H](c2c(O)cc(O)c3c(=O)cc(-c4ccc(C(F)(F)F)cc4Cl)oc23)[C@@H]1CO,,item: Pneumonia,relapsed AML,"oral, 150 mg, grade 3-4, intermittent dosing",,patients with adverse event,0%
CC(C)CC(=O)OC[C@H]1O[C@@](C#N)(c2ccc3c(N)ncnn23)[C@H](O)[C@@H]1O,,,human plasma,0.9 µM,,fraction bound,0.807
COc1cc(CCC[P+](c2ccccc2)(c2ccccc2)c2ccccc2)c(OC)c2c1OCO2.[I-],HL-60(TB),SRB,,,,Log10LC50,> -4 log M
NC(=O)[C@H]1CCN(c2ncnc(N)c2F)C[C@@H]1N1CCC[C@@H](Nc2cc(Cl)cc(C(F)(F)F)c2)C1=O,,,B-cell malignancy patients,"oral, 41 mg twice daily, dose",,grade ≥3 anaemia,40%
C[C@H](/C=C/[C@H](C)C(C)(C)O)[C@H]1CC[C@H]2/C(=C/C=C3C[C@@H](O)C[C@H](O)C3)CCC[C@]12C,,,patients with refractory advanced malignancies,"MTD not assessed, together with: gemcitabine weekly",,highest safe dose,7 µg/kg
CCC[C@@](N)(CO)CCc1ccc(OCCCCCC(C)C)cc1,,,"male hound dog, plasma","oral, 2.5 mg/kg, solution, geometric mean",,AUC(0-inf),2.47 µM·h
COc1cc2c(Oc3ccc4[nH]c(C)cc4c3F)ccnc2cc1OCC1(N)CC1,,item: grade 3 blurred vision,paediatric high-risk refractory sarcoma,whole group,,incidence of adverse event,0%
CCCCN1CCC(COC(=O)c2ccc(N)c(O[11CH3])c2)CC1,,PET SRTM,"rhesus monkey, frontal cortex","baseline, unit not given",reference: cerebellum,BPND,0.31 ± 0.1
C[C@]1(CO)Cc2ncn(-c3ccc(C#N)c(Cl)c3)c2C(=O)O1,,,"human, plasma","40 mg once daily, fasted",,Cmax at steady state,1300 nM
COc1ccnc(C(=O)N[C@H]2COC(=O)[C@H](Cc3ccccc3)[C@@H](OC(=O)C(C)C)[C@H](C)OC2=O)c1OCOC(=O)C(C)C,,,"field soil, loamy sand","actual, Germany",,DT50,5.29 days
CCCCCCCCCCCCCCCC(=O)N[C@@H](CCC(=O)NCCCC[C@H](NC(=O)[C@H](CC(=O)O)NC(=O)[C@H](CO)NC(=O)[C@@H](NC(=O)[C@H](Cc1ccccc1)NC(=O)[C@@H](NC(=O)CNC(=O)[C@H](CCC(N)=O)NC(=O)[C@H](CO)NC(=O)[C@@H](N)Cc1c[nH]cn1)[C@@H](C)O)[C@@H](C)O)C(=O)N[C@@H](CO)C(=O)N[C@@H](CCC(=O)O)C(=O)N[C@@H](Cc1ccc(O)cc1)C(=O)N[C@@H](CC(C)C)C(=O)N[C@@H](CC(=O)O)C(=O)N[C@@H](CO)C(=O)N[C@@H](CCC(=O)O)C(=O)N[C@@H](CCCNC(=N)N)C(=O)N[C@@H](C)C(=O)N[C@@H](CCCNC(=N)N)C(=O)N[C@@H](CC(=O)O)C(=O)N[C@@H](Cc1ccccc1)C(=O)N[C@H](C(=O)N[C@@H](C)C(=O)N[C@@H](Cc1c[nH]c2ccccc12)C(=O)N[C@@H](CC(C)C)C(=O)N[C@@H](CCC(=O)O)C(=O)N[C@@H](C)C(=O)NCC(=O)NCC(=O)O)C(C)C)C(=O)O,,item: Hyperglycaemia,humans CrCl 20 to 30 mL/min,"subcutaneous, 100 µg single dose",,treatment-related adverse events,0%

# A few entries again:
SMILES,tested on,test,system,conditions,scale,measurement,result
C[C@]1(CO)Cc2ncn(-c3ccc(C#N)c(Cl)c3)c2C(=O)O1,,,"human, plasma","40 mg once daily, fasted",,Cmax at steady state,1300 nM
